Experimental data of several laboratories.
Every numbered part comes from another study and shows a few of its results, in no order. Positions count from the first letter of the parent shown.

Series 1
Target: POU domain, class 5, transcription factor 1, POU domain (Pou5f1, Mus musculus, UniProt P20263, residues 131-289)
Sequence of UniProt P20263 (131-289, looked up): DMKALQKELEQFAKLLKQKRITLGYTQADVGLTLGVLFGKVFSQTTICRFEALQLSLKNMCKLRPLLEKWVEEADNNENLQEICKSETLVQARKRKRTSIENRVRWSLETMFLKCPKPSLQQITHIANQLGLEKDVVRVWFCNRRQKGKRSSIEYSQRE
Method: Spec-seq
Form: double-stranded DNA, one strand shown
Matrix: in vitro
Concentration: not given
Notes: whole probe, mean of replicates
Reference: not given
Reading: lower = stronger binding
Measurement: relative binding energy
All sequences stand within: GAGTCGTCTCGTCAGCAC … CCGTAGAGCACTCAGGTC
Sequence = ATGCGAGT; result = 0.362 ln ratio
Sequence = CCTATAAT; result = 0.709 ln ratio
Sequence = ATGCACAA; result = -0.136 ln ratio
Sequence = ATCGACAT; result = 0.475 ln ratio
Sequence = CTCCTAAT; result = 0.856 ln ratio
Sequence = ATGCCCAG; result = 0.759 ln ratio
Sequence = ATGTCAAT; result = 0.176 ln ratio
Sequence = GCCGTAAT; result = 0.592 ln ratio
Sequence = ATGCTAGT; result = 0.368 ln ratio
Sequence = TCGGTAAT; result = 0.573 ln ratio
Sequence = ATCGTCAT; result = 0.566 ln ratio
Sequence = TGACTAAT; result = 0.336 ln ratio
Sequence = GACGTAAT; result = 0.549 ln ratio
Sequence = GTCCTAAT; result = 0.673 ln ratio
Sequence = ATGCCTGA; result = 0.8 ln ratio
Sequence = GTGGTAAT; result = 0.453 ln ratio
Sequence = GCCATAAT; result = 0.611 ln ratio
Sequence = ATATTTAT; result = -0.628 ln ratio
Sequence = ATTCATAT; result = -0.704 ln ratio
Sequence = ATTACGAT; result = 0.419 ln ratio
Sequence = ATGCTCCT; result = 0.555 ln ratio
Sequence = CTAGTAAT; result = 0.693 ln ratio
Sequence = ATGCTCAC; result = 0.459 ln ratio
Sequence = ATCTTTAT; result = 0.403 ln ratio
Sequence = ATGCTGAA; result = 0.39 ln ratio

Series 2
Partner: ARF19 948-1086 (Arabidopsis thaliana, UniProt Q8RYC8)
Method: two-hybrid
Reference: out of 4 tests
Reading: higher = firmer interaction
Measurement: positive tests
B1: ARF5 788-902 (Arabidopsis thaliana, UniProt P93024); chain ATPRVRTYTKVQKTGSVGRSIDVTSFKDYEELKSAIECMFGLEGLLTHPQSSGWKLVYVDYESDVLLVGDDPWEEFVGCVRCIRILSPTEVQQMSEEGMKLLNSAGINDLKTSVS
B2: ARF2 727-859 (Arabidopsis thaliana, UniProt Q94JM3); chain TKTNSSRSCTKVHKQGIALGRSVDLSKFQNYEELVAELDRLFEFNGELMAPKKDWLIVYTDEENDMMLVGDDPWQEFCCMVRKIFIYTKEEVRKMNPGTLSCRSEEEAVVGEGSDAKDAKSASNPSLSSAGNS
B3: ARF12 500-593 (Arabidopsis thaliana, UniProt Q9XID4); chain TEIQNKQFSSSRTCTKVQMQGVTIGRAVDLSVLNGYDQLILELEKLFDIKGQLQTRNQWEIAFTDSDEDKMLVGDDPWPEFCNMVKKIFIQKRR
B4: ARF11 500-622 (Arabidopsis thaliana, UniProt Q9ZPY6); chain SPKEQKQQTSTRSRIKVQMQGTAVGRAVDLTLLRSYDELIKELEKMFEIEGELSPKDKWAIVFTDDEGDRMLVGDDPWNEFCKMAKKLFIYPSDEVKKMRSKSLLGDKGTIVNLESDQRTVHV
B5: IAA19 (Arabidopsis thaliana, UniProt O24409); chain MEKEGLGLEITELRLGLPGRDVAEKMMKKRAFTEMNMTSSGSNSDQCESGVVSSGGDAEKVNDSPAAKSQVVGWPPVCSYRKKNSCKEASTTKVGLGYVKVSMDGVPYLRKMDLGSSQGYDDLAFALDKLFGFRGIGVALKDGDNCEYVTIYEDKDGDWMLAGDVPWGMFLESCKRLRIMKRSDATGFGLQPRGVDE
B6: IAA16 (Arabidopsis thaliana, UniProt O24407); chain MINFEATELRLGLPGGNHGGEMAGKNNGKRGFSETVDLKLNLSSTAMDSVSKVDLENMKEKVVKPPAKAQVVGWPPVRSFRKNVMSGQKPTTGDATEGNDKTSGSSGATSSASACATVAYVKVSMDGAPYLRKIDLKLYKTYQDLSNALSKMFSSFTIGNYGPQGMKDFMNESKLIDLLNGSDYVPTYEDKDGDWMLVGDVPWEMFVDSCKRIRIMKGSEAIGLAPRALEKCKNRS
B7: ARF10 575-693 (Arabidopsis thaliana, UniProt Q9SKN5); chain LQGLETGHCKVFMESEDVGRTLDLSVIGSYQELYRKLAEMFHIEERSDLLTHVVYRDANGVIKRIGDEPFSDFMKATKRLTIKMDIGGDNVRKTWITGIRTGENGIDASTKTGPLSIFA
B8: IAA32 (Arabidopsis thaliana, UniProt Q8RYC6); chain MDPNTPADFFKGSSKFHTYYSQTKKGGGVIDLGLSLRTIQHETYLPPARMIGLDGYGELIDWSQPSYNSITQLKSEDTGHQRLAQGYYNNEGESRGKYAYVKVNLDGLVVGRKVCLVDQGAYATLALQLNDMFGMQTVSGLRLFQTESEFSLVYRDREGIWRNVGDVPWKEFVESVDRMRIARRNDALLPF
B9: ARF8 699-811 (Arabidopsis thaliana, UniProt Q9FGV1); chain NSSNQTKNFVKVYKSGSVGRSLDISRFSSYHELREELGKMFAIEGLLEDPLRSGWQLVFVDKENDILLLGDDPWESFVNNVWYIKILSPEDVHQMGDHGEGSGGLFPQNPTHL
B10: IAA18 (Arabidopsis thaliana, UniProt O24408); chain MEGYSRNGEISPKLLDLMIPQERRNWFHDEKNSVFKTEEKKLELKLGPPGEEDDDESMIRHMKKEPKDKSILSLAGKYFSPSSTKTTSHKRTAPGPVVGWPPVRSFRKNLASGSSSKLGNDSTTSNGVTLKNQKCDAAAKTTEPKRQGGMFVKINMYGVPIGRKVDLSAHNSYEQLSFTVDKLFRGLLAAQRDFPSSIEDEKPITGLLDGNGEYTLTYEDNEGDKMLVGDVPWQMFVSSVKRLRVIKTSEISSALTYGNGKQEKMRR
B11: IAA26 (Arabidopsis thaliana, UniProt Q8LAL2); chain MEGCPRNREIGPKLLDLIPQGRKWYQEDKNNTDQEKKLELRLGPPGGDEEDHSAIKKKNTEIRNIKKETEDKSFHCFNGNHFSPSNKTTSVPHISQKRTAPGPVVGWPPVRSFRKNLASTSSSKLGNESSHGGQINKSDDGEKQVETKKEGMFVKINMDGVPIGRKVDLNAYNSYEQLSFVVDKLFRGLLAAQRDISDGQGEEKPIIGLLDGKGEFTLTYEDNEGDKMLVGDVPWQMFVSSVKRLRVIKSSEISSALTFGCSKQEKMMH
Construct (chain): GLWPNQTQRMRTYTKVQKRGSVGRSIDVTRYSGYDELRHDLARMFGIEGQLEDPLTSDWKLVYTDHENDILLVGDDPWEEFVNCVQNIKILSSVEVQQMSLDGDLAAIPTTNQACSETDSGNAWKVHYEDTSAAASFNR
Sequence = B1 (ARF5 788-902); result = 0
Sequence = B2 (ARF2 727-859); result = 0
Sequence = B3 (ARF12 500-593); result = 0
Sequence = B4 (ARF11 500-622); result = 0
Sequence = B5 (IAA19); result = 4
Sequence = B6 (IAA16); result = 4
Sequence = B7 (ARF10 575-693); result = 0
Sequence = B8 (IAA32); result = 4
Sequence = B9 (ARF8 699-811); result = 1
Sequence = B10 (IAA18); result = 4
Sequence = B11 (IAA26); result = 1

Series 3
Target: Sal-like protein 4, full length isoform B (SALL4, Homo sapiens, UniProt Q9UJQ4-2, residues 1-616)
Method: universal PBM
Form: double-stranded DNA, one strand shown
Matrix: in vitro
Concentration: not given
Notes: 8-mer, flanks averaged, mean of replicates
Reading: higher = stronger binding
Measurement: E-score
Residues (chain): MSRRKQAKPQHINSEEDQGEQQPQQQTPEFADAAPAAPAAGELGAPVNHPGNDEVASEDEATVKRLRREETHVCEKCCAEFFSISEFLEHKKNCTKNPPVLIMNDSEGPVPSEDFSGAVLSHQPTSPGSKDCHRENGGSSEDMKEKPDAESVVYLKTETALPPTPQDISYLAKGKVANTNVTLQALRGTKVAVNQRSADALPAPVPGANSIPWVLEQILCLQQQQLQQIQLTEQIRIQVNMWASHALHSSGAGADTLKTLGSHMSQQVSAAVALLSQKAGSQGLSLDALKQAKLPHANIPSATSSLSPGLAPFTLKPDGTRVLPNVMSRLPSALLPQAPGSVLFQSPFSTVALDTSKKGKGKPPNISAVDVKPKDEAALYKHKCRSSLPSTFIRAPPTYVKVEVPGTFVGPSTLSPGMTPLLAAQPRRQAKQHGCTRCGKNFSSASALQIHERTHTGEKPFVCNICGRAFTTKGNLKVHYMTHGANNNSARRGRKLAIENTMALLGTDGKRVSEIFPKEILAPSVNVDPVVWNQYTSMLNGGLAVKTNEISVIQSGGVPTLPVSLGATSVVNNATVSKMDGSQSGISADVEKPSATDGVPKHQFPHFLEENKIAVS
Sequence = GGGACCGA; result = -0.309
Sequence = GTCTGCGA; result = -0.169
Sequence = GTCTCCAA; result = 0.144
Sequence = ATCTCAAA; result = 0.187
Sequence = GCATCTCC; result = -0.238
Sequence = CATCCCGA; result = -0.0708
Sequence = ACTACGGC; result = -0.234
Sequence = GAGAGTTA; result = 0.0473
Sequence = GAACTCTC; result = -0.161
Sequence = AATGACCC; result = -0.159
Sequence = CCCTTAAG; result = 0.0299
Sequence = ACAACTCG; result = -0.00386
Sequence = CACCTTAC; result = 0.0434
Sequence = CTTGAAAC; result = 0.0566
Sequence = GAATTAGA; result = 0.191
Sequence = CGTTATCA; result = 0.222
Sequence = AGACTCTA; result = 0.0305
Sequence = AAGGGTAC; result = 0.0605
Sequence = AAGTAACG; result = 0.0672
Sequence = ACCATCAC; result = 0.0102
Sequence = CACATTAA; result = 0.187
Sequence = AACGGCTA; result = -0.0124
Sequence = CCACATAC; result = 0.0738
Sequence = CATTCTCG; result = -0.0623

Series 4
Target: FOS, bZIP domain (human)
Method: DHFR protein complementation
Matrix: yeast
Notes: single substitutions, most at no-binding floor
Reference: wild-type JUN-FOS pair
Reading: higher = stronger binding
Measurement: binding fitness
Starting sequence: JUN, bZIP domain (human); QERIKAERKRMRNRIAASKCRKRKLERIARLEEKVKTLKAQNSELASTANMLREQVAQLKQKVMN; partner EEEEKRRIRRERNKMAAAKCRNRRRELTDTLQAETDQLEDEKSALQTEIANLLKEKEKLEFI
Variant = N42A; result = -0.603 natural log
Variant = L52E; result = -0.995 natural log
Variant = A57K; result = -0.0396 natural log
Variant = Q58S; result = 0.0442 natural log
Variant = E44V; result = -0.0788 natural log
Variant = T37W; result = -0.17 natural log
Variant = S47N; result = 0.0212 natural log
Variant = Q55I; result = -0.024 natural log
Variant = A46H; result = -0.0815 natural log
Variant = L59A; result = -0.831 natural log
Variant = M51H; result = -0.0723 natural log
Variant = A57H; result = -0.113 natural log
Variant = Q41N; result = -0.318 natural log
Variant = Q55G; result = -0.932 natural log
Variant = K39T; result = -0.281 natural log
Variant = M51P; result = -1.37 natural log
Variant = E33K; result = -0.244 natural log
Variant = E54C; result = -0.325 natural log
Variant = K39D; result = -1.2 natural log
Variant = Q41E; result = 0.0605 natural log
Variant = Q58A; result = -0.0448 natural log
Variant = A57T; result = -0.0966 natural log
Variant = L31A; result = -0.153 natural log
Variant = R30L; result = 0.118 natural log
Variant = L45C; result = -1.19 natural log

Series 5
Target: CCNB2, cyclin fold, Cln2 fusion (human)
Method: yeast growth competition, sequencing
Matrix: yeast
Notes: weak parent motif
Reference: not given
Reading: higher = stronger binding
Measurement: normalised enrichment score
Starting sequence: CDKN1B docking peptide (human); PSACRNLFGPVDH; partner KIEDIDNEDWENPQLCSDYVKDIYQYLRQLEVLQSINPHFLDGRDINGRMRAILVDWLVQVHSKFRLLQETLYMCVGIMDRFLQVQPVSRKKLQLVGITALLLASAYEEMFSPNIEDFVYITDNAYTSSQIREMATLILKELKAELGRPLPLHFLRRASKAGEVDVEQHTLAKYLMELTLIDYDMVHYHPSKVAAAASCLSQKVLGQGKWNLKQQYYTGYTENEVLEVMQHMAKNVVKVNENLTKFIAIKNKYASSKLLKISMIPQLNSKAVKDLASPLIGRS
Variant = D12K; result = 0.495
Variant = A3R; result = 0.659
Variant = F8E; result = -0.173
Variant = F8I; result = 0.395
Variant = N6P; result = -0.428
Variant = P10V; result = -0.0566
Variant = P10G; result = 0.0795
Variant = G9D; result = 0.315
Variant = P10Y; result = 0.488
Variant = V11W; result = 0.522
Variant = N6K; result = 0.407
Variant = A3Q; result = 0.228
Variant = R5Y; result = -0.0296
Variant = F8H; result = 0.225
Variant = V11P; result = 0.777
Variant = N6T; result = -0.209
Variant = H13S; result = 0.228
Variant = L7A; result = 0.183
Variant = N6V; result = 0.211
Variant = G9M; result = -0.00204
Variant = C4T; result = -0.0623
Variant = D12W; result = 0.428
Variant = R5H; result = -0.0749
Variant = N6L; result = 0.187
Variant = S2R; result = 0.266

Further values, each from its own experiment
Molecule = PhoQ, residues 284 288 289 292 302 303 SSTLSG; target = PhoP, residues 12 14 15 18 19 LHATL (Escherichia coli, UniProt P23836); test = Sort-seq, refers to: YFP reporter; system = E. coli; conditions = PhoQ-PhoP variant library, added: 10 µM Mg2+; scale = reference: high Mg2+ state, higher = stronger signaling; measurement = fold induction; result = 1.77

Excerpt of the above (series 4):
Variant = N42A; result = -0.603 natural log
Variant = E33K; result = -0.244 natural log
Variant = Q41N; result = -0.318 natural log
Variant = A57K; result = -0.0396 natural log
Variant = M51P; result = -1.37 natural log
Variant = Q55I; result = -0.024 natural log
